Published values from different studies.
Compare with care: the assays were run in different laboratories.
Organism: Staphylococcus aureus

The MIC of `CCCCCCn1cc[n+](CCCCOc2cc(OCCCC[n+]3ccn(CCCCCC)c3)cc(OCCCC[n+]3ccn(CCCCCC)c3)c2)c1.[Br-].[Br-].[Br-]` is reported as 2 µM (CA-MRSA USA300-0114).
`CCCCCCCCCC(=O)Oc1c(C)c(OC)c2c(/C=C/c3ccccc3)c(CCCCCCCC)c(=O)oc2c1C` has an MIC of 5000 µg/mL (microbial growth, broth dilution; ATCC25923).
`CC[C@H]1OC(=O)[C@H](C)[C@@H](O[C@H]2C[C@@](C)(OC)[C@@H](O)[C@H](C)O2)[C@H](C)[C@@H](O[C@@H]2O[C@H](C)C[C@H](N(C)C)[C@H]2O)[C@](C)(OC)C[C@@H](C)C(=O)[C@H](C)[C@@H](O)[C@]1(C)O` has an MIC of > 256 µg/mL (ATCC 43300 MRSA).
With `CCCCCCCCCCCC[N+](C)(C)CCCCCCOc1cc(OCCCCCC[N+](C)(C)CCCCCCCCCCCC)cc(OCCCCCC[N+](C)(C)CCCCCCCCCCCC)c1.[Br-].[Br-].[Br-]` the MIC was 16 µM (HA-MRSA ATCC 33591).
`CN[C@H](CC(C)C)C(=O)N[C@H]1C(=O)N[C@@H](CC(N)=O)C(=O)N[C@H]2C(=O)N[C@H]3C(=O)N[C@H](C(=O)N[C@H](C(=O)NCc4cn(CC(=O)N[C@H](C(=O)N[C@@H](CCN)C(=O)N[C@H]5CCNC(=O)[C@H]([C@@H](C)O)NC(=O)[C@H](CCN)NC(=O)[C@H](CCN)NC(=O)[C@H](CC(C)C)NC(=O)[C@@H](CC(C)C)NC(=O)[C@H](CCN)NC5=O)[C@@H](C)O)nn4)c4cc(O)cc(O)c4-c4cc3ccc4O)[C@H](O)c3ccc(c(Cl)c3)Oc3cc2cc(c3O[C@@H]2O[C@H](CO)[C@@H](O)[C@H](O)[C@H]2O[C@H]2C[C@](C)(N)[C@H](O)[C@H](C)O2)Oc2ccc(cc2Cl)[C@H]1O` gave an MIC of 0.25 µg/mL (broth microdilution; MSSA ATCC 29213, cation-adjusted Mueller-Hinton broth; 20 to 24 h, 37 °C, 0.002% polysorbate 80).
For `CCCCCCCC[N+](C)(C)CCCCCCCCCCOc1cc(OCCCCCCCCCC[N+](C)(C)CCCCCCCC)cc(OCCCCCCCCCC[N+](C)(C)CCCCCCCC)c1.[Br-].[Br-].[Br-]`, the MIC was 2 µM (SH1000 MSSA).
The MIC of `COc1c(NC(=O)c2ccc(NC(=O)[C@H](Cc3c[nH]nn3)NC(=O)c3ccc(NC(=O)/C(C)=C/c4ccc(O)cc4)cc3)cc2)ccc(C(=O)Nc2ccc(C(=O)O)cc2)c1O` is reported as 2 µg/mL (broth microdilution; ciprofloxacin-resistant).
With `Oc1c(Br)cc(Br)c2nc3cc(C(F)(F)F)ccc3nc12` the MIC was 0.08 µM (147 MRSA clinical isolate).
`COc1c(NC(=O)c2ccc(NC(=O)c3ccc(NC(=O)[C@H](CC#N)NC(=O)c4ccc(NC(=O)/C(C)=C/c5ccc(O)cc5)cc4)cc3)c(OC)c2O)ccc(C(=O)O)c1O` has an MIC of 0.4 µg/mL (microbial growth; ATCC29213).
`CC(C)C[C@H]1NC(=O)[C@H](Cc2c[nH]c3ccccc23)NC(=O)[C@@H](C(C)C)NC(=O)[C@@H]2CSC(N2)[C@H](C(C)C)NC(=O)[C@@H](Cc2c[nH]c3ccccc23)NC(=O)[C@H](C(C)C)NC1=O` gave an MIC of 3.1 µg/mL (NCTC 8325, Mueller Hinton broth; 21 h, 37 °C).
With `CCC(CC)c1cc(CCN2CCCN(S(=O)(=O)c3cccc4ccccc34)CC2)nc(-c2ccccn2)n1` the MIC was > 16 µg/mL (microbial growth, broth dilution; ATCC29213).
`N=C(N)NCCC[C@@H]1NC(=O)[C@H](CCCNC(=N)N)NC(=O)[C@@H](CCCNC(=N)N)NC(=O)[C@H](C(c2ccccc2)c2ccccc2)NC(=O)[C@H](C(c2ccccc2)c2ccccc2)NC(=O)[C@H](C(c2ccccc2)c2ccccc2)NC(=O)[C@H](CCCNC(=N)N)NC1=O` gave an MIC of 4 µg/mL (ATCC 29213, MSSA).
The MIC of `CC[C@H]1OC(=O)[C@H](C)[C@@H](OC(=O)Cc2ccc(Cl)cc2)[C@H](C)[C@@H](O[C@@H]2O[C@H](C)C[C@H](N(C)C)[C@H]2O)[C@](C)(OC)C[C@@H](C)C(=O)[C@H](C)[C@@H](O)[C@]1(C)O` is reported as 4 µg/mL (BAA-977).
`CCCCCCCCCCCC[N+](C)(C)CCCCOc1cc(OCCCC[N+](C)(C)CCCCCCCCCCCC)cc(OCCCC[N+](C)(C)CCCCCCCCCCCC)c1.[Br-].[Br-].[Br-]` has an MIC of 4 µM (HA-MRSA ATCC 33591).
For `COc1c(C)c(OCc2ccccc2)c(C)c(OCc2ccccc2)c1C(=O)/C=C/c1ccccc1`, the MIC was 5000 µg/mL (microbial growth, broth dilution; ATCC25923).
`CN[C@H](CC(C)C)C(=O)N[C@H]1C(=O)N[C@@H](CC(N)=O)C(=O)N[C@H]2C(=O)N[C@H]3C(=O)N[C@H](C(=O)N[C@H](C(=O)NCc4cn(CCCCC(=O)N[C@H](C(=O)N[C@@H](CCN)C(=O)N[C@H]5CCNC(=O)[C@H]([C@@H](C)O)NC(=O)[C@H](CCN)NC(=O)[C@H](CCN)NC(=O)[C@H](CC(C)C)NC(=O)[C@@H](CC(C)C)NC(=O)[C@H](CCN)NC5=O)[C@@H](C)O)nn4)c4cc(O)cc(O)c4-c4cc3ccc4O)[C@H](O)c3ccc(c(Cl)c3)Oc3cc2cc(c3O[C@@H]2O[C@H](CO)[C@@H](O)[C@H](O)[C@H]2O[C@H]2C[C@](C)(N)[C@H](O)[C@H](C)O2)Oc2ccc(cc2Cl)[C@H]1O` has an MIC of 0.25 µg/mL (broth microdilution; MRSA USA300, cation-adjusted Mueller-Hinton broth; 20 to 24 h, 37 °C, 0.002% polysorbate 80).
The MIC of `CC[C@H](C)[C@H](NC(=O)[C@H](CCC(N)=O)NC(=O)[C@H](Cc1ccccc1)NC(=O)[C@H](CC(N)=O)NC(=O)[C@H](CCCCN)NC(=O)[C@H](CC(C)C)NC(=O)[C@H](CCCNC(=N)N)NC(=O)[C@H](CCCCN)NC(=O)[C@H](CCCCN)NC(=O)[C@@H](NC(=O)[C@H](CO)NC(=O)[C@H](CCCCN)NC(=O)CNC(=O)[C@H](CC(C)C)NC(=O)[C@H](CCCCN)NC(=O)[C@H](CCCCN)NC(=O)[C@H](CC(C)C)NC(=O)[C@H](CCCCN)NC(=O)[C@H](CCCCN)NC(=O)[C@H](CCCNC(=N)N)NC(=O)[C@H](CC(C)C)NC(=O)CNC(=O)[C@@H](N)CCCNC(=N)N)[C@@H](C)CC)C(=O)NCC(=O)N[C@@H](Cc1ccccc1)C(=O)N[C@@H](CO)C(=O)N[C@H](C(=O)N1CCC[C@H]1C(=O)N[C@@H](Cc1ccccc1)C(=O)N[C@@H](C)C(=O)NCC(=O)O)C(C)C` is reported as 128 µg/mL (broth microdilution; ATCC 29213; 16 h, 37 °C, cation-adjusted Mueller-Hinton broth).
`CC[C@H]1OC(=O)[C@H](C)[C@@H](OC(=O)c2ccc(N)cc2)[C@H](C)[C@@H](O[C@@H]2O[C@H](C)C[C@H](N(C)C)[C@H]2O)[C@](C)(OC)C[C@@H](C)C(=O)[C@H](C)[C@@H](O)[C@]1(C)O` has an MIC of > 256 µg/mL (BAA-977).
For `CCCC/C=C/C(=O)N[C@@H](Cc1cc(F)cc(F)c1)C(=O)N[C@@H]1C(=O)N2CCC[C@H]2C(=O)N2CCCC[C@H]2C(=O)N[C@@H](C)C(=O)N2CCC[C@H]2C(=O)O[C@H]1C`, the MIC was 0.098 µg/mL (microbial growth, broth dilution).
The MIC of `CC1C=CC=CC(C)C2C=CC3CC(C)(O)C(Cl)C(C)C3C2C(=O)C(Cl)(Cl)C(=O)C(C)C(=O)O1` (stereo not drawn) is reported as 0.1 µg/mL (MRSA clinical isolate; resistant OXA/GEN/TET).
`CC[C@H](C)[C@H](N)C1=N[C@H](C(=O)N[C@@H](CC(C)C)C(=O)N[C@H](CCC(=O)O)C(=O)N[C@H](C(=O)N[C@H]2CCCCNC(=O)[C@H](CC(N)=O)NC(=O)[C@@H](CC(=O)O)NC(=O)[C@H](Cc3c[nH]cn3)NC(=O)[C@@H](Cc3ccccc3)NC(=O)[C@H]([C@@H](C)CC)NC(=O)[C@@H](CCCN)NC2=O)[C@@H](C)CC)CS1` has an MIC of 32 µg/mL (broth microdilution; USA300 MRSA, LB medium; no added Zn2+).
`CCCCCCCC[N+](C)(C)CCCCOc1cc(OCCCC[N+](C)(C)CCCCCCCC)cc(OCCCC[N+](C)(C)CCCCCCCC)c1.[Br-].[Br-].[Br-]` gave an MIC of 0.5 µM (CA-MRSA USA300-0114).
`COc1c(NC(=O)c2ccc(NC(=O)c3ccc(NC(=O)[C@H](Cc4c[nH]nn4)NC(=O)c4ccc(NC(=O)/C(C)=C/c5ccc(O)cc5)cc4)cc3)cc2)ccc(C(=O)O)c1O` gave an MIC of 32 µg/mL (broth microdilution; ciprofloxacin-resistant).
`CCCCCC[N+](C)(C)CCCCCCOc1cc(OCCCCCC[N+](C)(C)CCCCCC)cc(OCCCCCC[N+](C)(C)CCCCCC)c1.[Br-].[Br-].[Br-]` gave an MIC of 0.5 µM (CA-MRSA USA300-0114).
The MIC of `CCOc1c(NC(=O)c2ccc(NC(=O)c3ccc(NC(=O)[C@H](Cc4c[nH]nn4)NC(=O)c4ccc(NC(=O)/C(C)=C/c5ccc(O)cc5)cc4)cc3)c(OC)c2O)ccc(C(=O)O)c1O` is reported as 0.125 µg/mL (broth microdilution; ciprofloxacin-sensitive).
The MIC of `CC[C@H]1OC(=O)[C@H](C)[C@@H](OC(=O)Cc2ccc(N)cc2)[C@H](C)[C@@H](O[C@@H]2O[C@H](C)C[C@H](N(C)C)[C@H]2O)[C@](C)(OC)C[C@@H](C)C(=O)[C@H](C)[C@@H](O)[C@]1(C)O` is reported as > 128 µg/mL (ATCC 43300 MRSA).
For `CCCCCCn1cc[n+](CCCCCCOc2cc(OCCCCCC[n+]3ccn(CCCCCC)c3)cc(OCCCCCC[n+]3ccn(CCCCCC)c3)c2)c1.[Br-].[Br-].[Br-]`, the MIC was 0.5 µM (SH1000 MSSA).
`CC[C@H]1OC(=O)[C@H](C)[C@@H](OC(=O)Cc2c(F)cc([N+](=O)[O-])cc2F)[C@H](C)[C@@H](O[C@@H]2O[C@H](C)C[C@H](N(C)C)[C@H]2O)[C@](C)(OC)C[C@@H](C)C(=O)[C@H](C)[C@@H](O)[C@]1(C)O` gave an MIC of 0.1 µg/mL (DSM 20231 MSSA).
For `COc1ccc(NC(=O)Nc2ccc(Cl)c(C(F)(F)F)c2)cc1OC`, the MIC was 30 µM (microbial growth; NCTC8325).
The MIC of `CC[C@H]1OC(=O)[C@H](C)[C@@H](OC(=O)Cc2ccc(N(C)C)cc2)[C@H](C)[C@@H](O[C@@H]2O[C@H](C)C[C@H](N(C)C)[C@H]2O)[C@](C)(OC)C[C@@H](C)C(=O)[C@H](C)[C@@H](O)[C@]1(C)O` is reported as 64 µg/mL (microbial growth; BAA976).
The MIC of `CCCCCCCCCCn1cc[n+](CCCCCCCCOc2cc(OCCCCCCCC[n+]3ccn(CCCCCCCCCC)c3)cc(OCCCCCCCC[n+]3ccn(CCCCCCCCCC)c3)c2)c1.[Br-].[Br-].[Br-]` is reported as 16 µM (HA-MRSA ATCC 33591).
With `CC[C@H]1OC(=O)[C@H](C)[C@@H](OC(=O)Cc2ccccc2Cl)[C@H](C)[C@@H](O[C@@H]2O[C@H](C)C[C@H](N(C)C)[C@H]2O)[C@](C)(OC)C[C@@H](C)C(=O)[C@H](C)[C@@H](O)[C@]1(C)O` the MIC was 4 µg/mL (DSM 20231 MSSA).
`COc1cc2c(cc1OC)-c1cc3ccc(OC)c(OC)c3c[n+]1CC2.[Cl][Fe-]([Cl])([Cl])[Cl]` has an MIC of 800 µM (24 h, 37 °C).

Excerpt of the above:
The MIC of `CC[C@H]1OC(=O)[C@H](C)[C@@H](OC(=O)Cc2ccc(N)cc2)[C@H](C)[C@@H](O[C@@H]2O[C@H](C)C[C@H](N(C)C)[C@H]2O)[C@](C)(OC)C[C@@H](C)C(=O)[C@H](C)[C@@H](O)[C@]1(C)O` is reported as > 128 µg/mL (ATCC 43300 MRSA).
With `CCC(CC)c1cc(CCN2CCCN(S(=O)(=O)c3cccc4ccccc34)CC2)nc(-c2ccccn2)n1` the MIC was > 16 µg/mL (microbial growth, broth dilution; ATCC29213).
`CCCCCC[N+](C)(C)CCCCCCOc1cc(OCCCCCC[N+](C)(C)CCCCCC)cc(OCCCCCC[N+](C)(C)CCCCCC)c1.[Br-].[Br-].[Br-]` gave an MIC of 0.5 µM (CA-MRSA USA300-0114).
For `COc1c(C)c(OCc2ccccc2)c(C)c(OCc2ccccc2)c1C(=O)/C=C/c1ccccc1`, the MIC was 5000 µg/mL (microbial growth, broth dilution; ATCC25923).
